{"data": "Measurements pooled from the literature", "note": "Parts stem from different laboratories: compare values within a part only. Substitutions count along the parent as printed."}
{"data": "Series 1", "target": "Sal-like protein 4, full length isoform A (SALL4, Homo sapiens, UniProt Q9UJQ4, residues 1-1053)", "method": "universal PBM", "molecule type": "double-stranded DNA, one strand shown", "medium": "in vitro", "tested at": "600 nM", "notes": "8-mer, flanks averaged, mean of replicates", "reading": "higher = stronger binding", "UniProt Q9UJQ4, sequence (whole entry, looked up)": "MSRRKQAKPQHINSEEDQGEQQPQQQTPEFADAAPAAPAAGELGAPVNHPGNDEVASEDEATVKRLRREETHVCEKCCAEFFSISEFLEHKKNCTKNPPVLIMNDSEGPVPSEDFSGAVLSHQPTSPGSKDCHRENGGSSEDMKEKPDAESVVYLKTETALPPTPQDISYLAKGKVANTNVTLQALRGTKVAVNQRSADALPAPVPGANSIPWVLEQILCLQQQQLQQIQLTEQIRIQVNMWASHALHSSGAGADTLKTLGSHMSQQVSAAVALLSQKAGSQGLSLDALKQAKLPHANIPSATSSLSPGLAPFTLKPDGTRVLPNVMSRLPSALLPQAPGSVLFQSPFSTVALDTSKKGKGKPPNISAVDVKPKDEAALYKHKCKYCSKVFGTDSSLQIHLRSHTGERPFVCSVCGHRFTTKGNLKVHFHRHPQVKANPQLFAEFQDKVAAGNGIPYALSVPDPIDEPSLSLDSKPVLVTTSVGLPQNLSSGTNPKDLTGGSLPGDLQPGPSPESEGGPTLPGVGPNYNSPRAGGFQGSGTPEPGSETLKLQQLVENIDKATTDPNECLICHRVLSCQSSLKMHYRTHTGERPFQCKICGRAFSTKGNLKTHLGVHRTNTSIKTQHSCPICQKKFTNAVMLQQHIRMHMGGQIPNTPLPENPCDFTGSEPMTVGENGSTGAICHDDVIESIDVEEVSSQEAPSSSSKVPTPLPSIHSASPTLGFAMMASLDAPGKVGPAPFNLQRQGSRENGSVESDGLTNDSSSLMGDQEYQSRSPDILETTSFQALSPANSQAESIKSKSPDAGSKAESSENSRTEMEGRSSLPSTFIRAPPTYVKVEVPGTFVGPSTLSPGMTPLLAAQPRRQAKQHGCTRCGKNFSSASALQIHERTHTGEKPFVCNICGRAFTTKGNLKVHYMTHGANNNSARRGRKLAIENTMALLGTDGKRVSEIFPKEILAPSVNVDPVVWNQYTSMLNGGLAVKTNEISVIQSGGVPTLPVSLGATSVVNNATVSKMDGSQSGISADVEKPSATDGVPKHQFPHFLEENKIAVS"}
{"Strand": "GCGCTTAC", "E-score": -0.188}
{"Strand": "CGTTGTAG", "E-score": -0.00487}
{"Strand": "CTTCACCA", "E-score": -0.117}
{"Strand": "TCGTGCCA", "E-score": -0.165}
{"Strand": "CAACCATC", "E-score": -0.085}
{"Strand": "AGTAAAAG", "E-score": 0.216}
{"Strand": "AACATGTC", "E-score": 0.0444}
{"Strand": "AAAGGCCT", "E-score": -0.169}
{"Strand": "CCGGAATC", "E-score": -0.185}
{"Strand": "CACTCGGC", "E-score": -0.135}
{"data": "Series 2", "target": "CCNE1, cyclin fold, Cln2 fusion (human)", "method": "yeast growth competition, sequencing", "medium": "yeast", "notes": "strong parent motif", "relative to": "not given", "reading": "higher = stronger binding", "starting sequence": "BRCA2 docking peptide (human); CKKRRALDFLSRL"}
{"Change": "CKKRRALDLLSRL [F9L]", "normalised enrichment score": 1.02}
{"Change": "CKKRAALDFLSRL [R5A]", "normalised enrichment score": 1.7}
{"Change": "CKARRALDFLSRL [K3A]", "normalised enrichment score": 1.7}
{"Change": "CKKRRALAFLSRL [D8A]", "normalised enrichment score": 1.16}
{"Change": "CKKRRALDFLSAL [R12A]", "normalised enrichment score": 2.52}
{"Change": "CKKRRALDALSRL [F9A]", "normalised enrichment score": 0.854}
{"Change": "CKKRRALDFASRL [L10A]", "normalised enrichment score": 1.4}
{"data": "Series 3", "target": "RNA binding protein fox-1 homolog 2, RRM domain, GST-SBP tag (RBFOX2, Homo sapiens, UniProt O43251-10, residues 100-194)", "method": "RNA Bind-n-Seq", "molecule type": "RNA", "medium": "in vitro", "tested at": "365 nM", "notes": "natural RNA segment, single round, ends assumed", "relative to": "no-protein control", "reading": "higher = stronger binding", "constant ends, left off below": "GGGAGUUCUACAGUCCGACGAUC … UGGAAUUCUCGGGUGCCAA", "Construct (chain)": "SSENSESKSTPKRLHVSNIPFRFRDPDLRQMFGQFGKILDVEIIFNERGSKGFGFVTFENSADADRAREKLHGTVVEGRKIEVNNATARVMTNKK"}
{"Strand": "GUUUCUGGGGAAGCAAAGGAGCUUAGAGCAGCUGGUGUGCUCACCCCUCCCCAGACGCCUCCAUUAACCACAGACUAUGUAGCGCUGGCCCUAGCCUCUGGCAGAGCCUG", "RBNS enrichment (R)": 0.334}
{"Strand": "CCAGAUAUUUGAUGAGGUGCUAUGUUUGUGAAAAACAUAUCAUGUAAUUCAAAAACACUAUUGAUAUUGAAUACCAGAUACCACUAUGUAGUAAGUCUUUUAGGAUGAUU", "RBNS enrichment (R)": 0.287}
{"Strand": "UCUUGUCCUUUCCCCUUCAGAUGGAGACUUCAUUAUGUUAAUGAACAAGAUAUGAAGAAAAUGGCACUCAUUGUGGCCUUGUUGAAUUAUGUUGUGUAUGUUUUAACAUC", "RBNS enrichment (R)": 0.841}
{"Strand": "GGGCUUGUCCUAGAGGCUCCAGCUCUGGCACAGUGGUUCCUGGCUGCUGCCAUGUCUCAGAUGAGGAGGGAGAGAAGGAGGCCGCCAGACUCGAGAGGUGGGAGGAACUC", "RBNS enrichment (R)": 0.507}
{"Strand": "GAUUUGUUGCCAUGUGCACUUUGGGAUUUUGUAAUUGUUAAAAGAAAAUAUUUCUUUUAUGAUUUUCUUCUCCCACUCCCUGUCCUCCAGUGUUCUGUUAAUAUUAUUUG", "RBNS enrichment (R)": 0.471}
{"Strand": "AUAAUUUUGGAAUUUGUUUCUCAUAAUACAGAAUAUAUAGUGGCUACCUUGUAUCUUGGUCUGGAUUCUCUCUCUGAGACCCCGGAUUUUACUUUCUCUUUGGAGGGCGC", "RBNS enrichment (R)": 0.364}
{"Strand": "UUCAAUCAACAUCUCUUGAGUGUCUAUUAUGUACAGGACAUGUACUGAGACAAAAAGGAAACAUAAGAGCUUUUUCACUCUAAAAAUCUUGGCAAUAAUGUCAACACCAG", "RBNS enrichment (R)": 0.411}
{"Strand": "AUAAACCCACCUAAGUGAAAUGGCCAUCCUCUAAACUGGGUACCUCACUGCACAGCUUCUAGGUAGCCUUCCAACUUAAUCUAACUUGAGCCUCACAGUAACCCUGUAAA", "RBNS enrichment (R)": 0.287}
{"Strand": "AAGCUUCAGUGACUGUCCCUUUGAAUUGCCUCCGAUUUCAAAAAUAAAUAAAUAAAUCUACACGUUUCUUUUGCUGUCUAGUGCUCACUCUUGUGAAAUGCAGAAAAAGU", "RBNS enrichment (R)": 0.72}
{"Strand": "UAAAGACAAGAGAAAGCCUACGUUUCAAUAUGUGAUGCUCAUGUGUGUUUGUAGUGUGAGCUCUUGUUUUUGAAAUGAUUGCUUCAGUCUUUGCCUUUGUUUGCACUGUG", "RBNS enrichment (R)": 1.64}
{"data": "Further values, each from its own experiment"}
{"Molecule": "PhoQ, residues 284 288 289 292 302 303 TASMAF", "target": "PhoP, residues 12 14 15 18 19 NQFFI (Escherichia coli, UniProt P23836)", "assay": "Sort-seq, refers to: YFP reporter", "system": "E. coli", "conditions": "PhoQ-PhoP variant library, together with: 10 µM Mg2+", "how to read": "relative to: high Mg2+ state, higher = stronger signaling", "quantity": "fold induction", "result": 11.8}
{"note": "A few entries again (series 3):"}
{"Strand": "GUUUCUGGGGAAGCAAAGGAGCUUAGAGCAGCUGGUGUGCUCACCCCUCCCCAGACGCCUCCAUUAACCACAGACUAUGUAGCGCUGGCCCUAGCCUCUGGCAGAGCCUG", "RBNS enrichment (R)": 0.334}
{"Strand": "AUAAUUUUGGAAUUUGUUUCUCAUAAUACAGAAUAUAUAGUGGCUACCUUGUAUCUUGGUCUGGAUUCUCUCUCUGAGACCCCGGAUUUUACUUUCUCUUUGGAGGGCGC", "RBNS enrichment (R)": 0.364}
{"Strand": "AUAAACCCACCUAAGUGAAAUGGCCAUCCUCUAAACUGGGUACCUCACUGCACAGCUUCUAGGUAGCCUUCCAACUUAAUCUAACUUGAGCCUCACAGUAACCCUGUAAA", "RBNS enrichment (R)": 0.287}
{"Strand": "GGGCUUGUCCUAGAGGCUCCAGCUCUGGCACAGUGGUUCCUGGCUGCUGCCAUGUCUCAGAUGAGGAGGGAGAGAAGGAGGCCGCCAGACUCGAGAGGUGGGAGGAACUC", "RBNS enrichment (R)": 0.507}
